Measurements from different studies.
Compare with care: the assays were run in different laboratories. Numbers after ± are the reported error.
Gamma carbonic anhydrase: Gamma carbonic anhydrase (Vibrio cholerae, UniProt Q9KVT1)
Cnr1: Cannabinoid receptor 1 (Cnr1, Mus musculus, UniProt P47746)
Oprm1: Mu-type opioid receptor (Oprm1, Mus musculus, UniProt P42866)
CES1: Liver carboxylesterase 1 (CES1, Homo sapiens, UniProt P23141)

NS(=O)(=O)CCCCn1cc(COc2ccccc2)nn1 — Ki (Gamma carbonic anhydrase; inhibitor): 43.5 µM
C=CCN1CCC2(C)c3cc(O)ccc3CC1C2C (single isomer, unassigned; (+)) — Ki (Sigma non-opioid intracellular receptor 1 (Sigmar1, Mus musculus, UniProt O55242)): 0.0164 ± 0.0013 µM
NS(=O)(=O)CCCn1cc(COc2ccccc2)nn1 — Ki (Gamma carbonic anhydrase; inhibitor): 37.8 µM
NC(N)=Nc1ccc2[nH]c3c(c2c1)C[C@@]1(O)[C@H]2Cc4ccc(O)c5c4[C@@]1(CCN2CC1CC1)[C@H]3O5 — Ki (Kappa-type opioid receptor (OPRK1, Homo sapiens, UniProt P41145); ligand displacement, radioligand; cell membranes): 0.00067 µM
CNC(C)C(=O)c1ccc(F)cc1 (stereo not drawn) — Ki (Synaptic vesicular amine transporter (SLC18A2, Homo sapiens, UniProt Q05940); ligand displacement, radioligand; cell membranes): > 1000 µM
CC(C)=CCN1CCC2(C)c3cc(O)ccc3CC1C2C (single isomer, unassigned; (-)) — Ki (Sigma intracellular receptor 2 (Tmem97, Rattus norvegicus, UniProt Q5U3Y7); binding; rat liver P2 membranes; σ1 blocked, added: [3H]DTG 5 nM): 0.0581 ± 0.004 µM
(−)-cocaine hydrochloride — Ki (Sigma intracellular receptor 2 (Tmem97, Mus musculus, UniProt Q8VD00); radioligand binding; mouse lung membranes; 60 min, 25 °C, added: [3H]DTG 3.0 nM, (+)-pentazocine 500 nM): 59.5 ± 7.21 µM
COc1ccc(C[C@@H](NC[C@H](O)c2cc(O)cc(O)c2)C(C)C)cc1 — Ki (Beta-2 adrenergic receptor (ADRB2, Homo sapiens, UniProt P07550); binding): no binding
C[C@H]1CN(C2CCCCCCC2)CC[C@@]1(C)c1cccc(O)c1 — Ki (Mu-type opioid receptor (OPRM1, Homo sapiens, UniProt P35372); ligand displacement, radioligand): 0.516 µM
CCCCn1cc(C(=O)c2cccc3ccccc23)c2ccccc21 — Ki (Cnr1; ligand displacement, radioligand; cell membranes): 0.0129 µM
[Cl-].[Cl-].[Mg+2] — Ki (ATP phosphoribosyltransferase (Mycobacterium tuberculosis, UniProt P9WMN1); enzyme activity, inhibitor; 200 mM KCl, added: saturating substrates): 23300 ± 8600 µM
NS(=O)(=O)CCCCn1cc(CNC(=O)Nc2ccc(C(F)(F)F)cc2)nn1 — Ki (Gamma carbonic anhydrase; inhibitor): 16.8 µM
C=CCN1CCC2(C)c3cc(O)ccc3CC1C2C (single isomer, unassigned; (+)) — Ki (Sigma intracellular receptor 2 (Tmem97, Rattus norvegicus, UniProt Q5U3Y7); ligand displacement, radioligand): > 10 µM
Cc1ccc(NC(=O)NCc2cn(CCCS(N)(=O)=O)nn2)cc1 — Ki (Gamma carbonic anhydrase; inhibitor): 10.9 µM
CN[C@@H](C)C/C=C/c1cncc(OC)c1 — Ki (Neuronal acetylcholine receptor; alpha3/beta4 (Homo sapiens, UniProt P30926+P32297); ligand displacement, radioligand; cell membranes): 14 µM
O=C(N[C@@H]1CC[C@@]2(O)[C@H]3Cc4cccc5c4[C@@]2(CCN3CC2CC2)[C@H]1O5)c1ccnc(Br)c1 — Ki (Oprm1; ligand displacement, radioligand; cell membranes): 0.0245 µM
C=CCN1CCC2(C)c3cc(O)ccc3CC1C2C (single isomer, unassigned; (-)) — Ki (Sigma intracellular receptor 2 (Tmem97, Mus musculus, UniProt Q8VD00); ligand displacement, radioligand; cell membranes): 6.72 µM
C=C[C@H]1CN2CCc3c([nH]c4cccc(OC)c34)[C@@H]2C[C@@H]1/C(=C\OC)C(=O)OC — Ki (CES1; reversible inhibitor; added: oseltamivir substrate): 26.1 ± 7.34 µM
COc1cccc(NC(=O)NCc2cn(CCCCS(N)(=O)=O)nn2)c1 — Ki (Gamma carbonic anhydrase; inhibitor): 22.2 µM
COc1cc(C(=O)N[C@@H]2CC[C@@]3(O)[C@H]4Cc5cccc6c5[C@@]3(CCN4CC3CC3)[C@H]2O6)ccn1 — Ki (Oprm1; ligand displacement, radioligand; cell membranes): 0.0456 µM
O=C(c1cccc2ccccc12)c1cn(CCCCO)c2ccccc12 — Ki (Cnr1; ligand displacement, radioligand; cell membranes): 0.224 µM
O=C(N[C@@H]1CC[C@@]2(O)[C@H]3Cc4cccc5c4[C@@]2(CCN3CC2CC2)[C@H]1O5)c1ccnc(Cl)c1 — Ki (Oprm1; ligand displacement, radioligand; cell membranes): 0.0188 µM
COc1cccc(NC(=O)NCc2cn(CCCS(N)(=O)=O)nn2)c1 — Ki (Gamma carbonic anhydrase; inhibitor): 9.4 µM
CC[C@@H]1CN2CCc3c([nH]c4cccc(OC)c34)[C@H]2C[C@@H]1/C(=C\OC)C(=O)OC — Ki (CES1; enzyme activity, inhibitor): 8.6 µM
